Measurements of several laboratories.
Every numbered part comes from another study and shows a few of its results, in no order. Substitutions count along the parent as printed.
UniProt Q15418, sequence (whole entry, looked up): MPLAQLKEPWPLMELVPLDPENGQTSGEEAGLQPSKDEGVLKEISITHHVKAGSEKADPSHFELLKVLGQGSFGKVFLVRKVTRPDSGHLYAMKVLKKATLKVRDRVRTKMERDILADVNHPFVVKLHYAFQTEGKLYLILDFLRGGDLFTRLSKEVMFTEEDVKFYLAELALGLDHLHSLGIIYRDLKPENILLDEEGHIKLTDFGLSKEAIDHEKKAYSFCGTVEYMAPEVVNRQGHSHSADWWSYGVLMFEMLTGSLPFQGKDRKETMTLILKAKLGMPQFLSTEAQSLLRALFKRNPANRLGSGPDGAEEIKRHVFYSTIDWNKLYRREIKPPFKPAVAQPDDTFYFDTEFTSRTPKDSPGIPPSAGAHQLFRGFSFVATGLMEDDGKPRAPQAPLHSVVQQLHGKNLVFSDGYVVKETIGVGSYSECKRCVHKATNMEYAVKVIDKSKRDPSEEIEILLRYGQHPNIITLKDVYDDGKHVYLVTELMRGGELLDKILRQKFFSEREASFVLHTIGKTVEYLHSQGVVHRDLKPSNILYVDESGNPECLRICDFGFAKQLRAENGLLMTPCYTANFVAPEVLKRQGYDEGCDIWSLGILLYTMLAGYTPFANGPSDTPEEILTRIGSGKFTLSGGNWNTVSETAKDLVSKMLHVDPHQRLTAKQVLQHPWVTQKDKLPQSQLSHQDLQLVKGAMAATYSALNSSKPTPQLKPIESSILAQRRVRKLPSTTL
UniProt Q96PY6, sequence (whole entry, looked up): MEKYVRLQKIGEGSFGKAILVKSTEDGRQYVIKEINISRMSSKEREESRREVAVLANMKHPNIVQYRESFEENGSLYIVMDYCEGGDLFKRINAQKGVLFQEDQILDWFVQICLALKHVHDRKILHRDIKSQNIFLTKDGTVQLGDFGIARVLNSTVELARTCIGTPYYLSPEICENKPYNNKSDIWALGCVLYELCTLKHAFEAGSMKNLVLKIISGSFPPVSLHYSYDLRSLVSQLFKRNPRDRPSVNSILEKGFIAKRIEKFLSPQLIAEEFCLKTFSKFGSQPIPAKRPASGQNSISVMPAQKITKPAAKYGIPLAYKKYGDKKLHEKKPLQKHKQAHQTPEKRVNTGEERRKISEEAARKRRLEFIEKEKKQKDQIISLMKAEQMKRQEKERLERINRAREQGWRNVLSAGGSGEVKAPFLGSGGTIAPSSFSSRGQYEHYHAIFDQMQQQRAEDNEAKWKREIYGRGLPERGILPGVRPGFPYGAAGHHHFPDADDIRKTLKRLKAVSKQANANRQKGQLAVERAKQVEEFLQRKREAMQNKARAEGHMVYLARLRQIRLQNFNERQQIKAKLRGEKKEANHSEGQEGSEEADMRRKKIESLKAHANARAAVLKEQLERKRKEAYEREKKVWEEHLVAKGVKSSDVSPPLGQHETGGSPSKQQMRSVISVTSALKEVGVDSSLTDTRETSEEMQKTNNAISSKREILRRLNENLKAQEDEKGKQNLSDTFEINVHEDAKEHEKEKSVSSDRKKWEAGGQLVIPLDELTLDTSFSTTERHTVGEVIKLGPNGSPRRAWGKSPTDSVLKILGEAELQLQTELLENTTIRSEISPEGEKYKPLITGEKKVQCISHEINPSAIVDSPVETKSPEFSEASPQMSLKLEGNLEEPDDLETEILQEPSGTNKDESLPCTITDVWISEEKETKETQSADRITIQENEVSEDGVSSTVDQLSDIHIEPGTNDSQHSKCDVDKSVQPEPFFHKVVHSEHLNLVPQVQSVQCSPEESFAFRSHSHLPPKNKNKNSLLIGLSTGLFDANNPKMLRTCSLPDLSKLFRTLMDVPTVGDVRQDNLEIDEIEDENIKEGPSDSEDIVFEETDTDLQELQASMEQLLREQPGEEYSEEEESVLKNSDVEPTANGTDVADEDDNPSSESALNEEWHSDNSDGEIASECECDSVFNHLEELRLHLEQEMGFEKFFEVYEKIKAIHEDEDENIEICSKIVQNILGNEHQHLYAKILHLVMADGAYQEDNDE
UniProt Q13164, sequence (whole entry, looked up): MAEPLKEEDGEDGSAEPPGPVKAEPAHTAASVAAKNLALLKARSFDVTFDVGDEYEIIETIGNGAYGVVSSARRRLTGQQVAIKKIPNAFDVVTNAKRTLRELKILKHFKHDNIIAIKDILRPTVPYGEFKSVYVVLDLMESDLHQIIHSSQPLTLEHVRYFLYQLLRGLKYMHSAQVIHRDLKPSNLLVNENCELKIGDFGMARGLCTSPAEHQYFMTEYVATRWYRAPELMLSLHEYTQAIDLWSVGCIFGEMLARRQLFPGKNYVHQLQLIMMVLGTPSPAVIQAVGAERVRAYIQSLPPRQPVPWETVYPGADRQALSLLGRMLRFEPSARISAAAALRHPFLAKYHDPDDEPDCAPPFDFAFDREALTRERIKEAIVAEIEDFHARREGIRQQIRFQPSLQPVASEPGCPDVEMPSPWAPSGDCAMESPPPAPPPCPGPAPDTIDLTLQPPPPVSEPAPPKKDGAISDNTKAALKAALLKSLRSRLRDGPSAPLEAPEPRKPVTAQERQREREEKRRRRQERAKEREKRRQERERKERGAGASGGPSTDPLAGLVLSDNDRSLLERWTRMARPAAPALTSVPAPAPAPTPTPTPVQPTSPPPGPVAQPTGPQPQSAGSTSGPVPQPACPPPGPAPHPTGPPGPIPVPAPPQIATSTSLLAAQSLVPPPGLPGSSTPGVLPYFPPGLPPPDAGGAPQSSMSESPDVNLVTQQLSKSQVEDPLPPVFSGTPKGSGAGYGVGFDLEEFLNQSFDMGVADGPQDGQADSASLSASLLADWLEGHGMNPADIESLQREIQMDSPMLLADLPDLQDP
UniProt Q9BXA7, sequence (whole entry, looked up): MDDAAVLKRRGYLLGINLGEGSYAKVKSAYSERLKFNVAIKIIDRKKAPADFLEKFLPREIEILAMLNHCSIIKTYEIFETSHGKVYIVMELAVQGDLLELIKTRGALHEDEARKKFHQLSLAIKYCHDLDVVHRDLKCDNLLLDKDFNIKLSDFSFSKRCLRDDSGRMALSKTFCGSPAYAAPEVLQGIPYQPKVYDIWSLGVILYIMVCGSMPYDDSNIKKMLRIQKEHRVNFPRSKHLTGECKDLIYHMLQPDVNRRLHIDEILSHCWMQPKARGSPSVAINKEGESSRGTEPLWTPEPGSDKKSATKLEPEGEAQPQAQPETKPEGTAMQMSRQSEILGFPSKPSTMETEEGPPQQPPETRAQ
UniProt O75914, sequence (whole entry, looked up): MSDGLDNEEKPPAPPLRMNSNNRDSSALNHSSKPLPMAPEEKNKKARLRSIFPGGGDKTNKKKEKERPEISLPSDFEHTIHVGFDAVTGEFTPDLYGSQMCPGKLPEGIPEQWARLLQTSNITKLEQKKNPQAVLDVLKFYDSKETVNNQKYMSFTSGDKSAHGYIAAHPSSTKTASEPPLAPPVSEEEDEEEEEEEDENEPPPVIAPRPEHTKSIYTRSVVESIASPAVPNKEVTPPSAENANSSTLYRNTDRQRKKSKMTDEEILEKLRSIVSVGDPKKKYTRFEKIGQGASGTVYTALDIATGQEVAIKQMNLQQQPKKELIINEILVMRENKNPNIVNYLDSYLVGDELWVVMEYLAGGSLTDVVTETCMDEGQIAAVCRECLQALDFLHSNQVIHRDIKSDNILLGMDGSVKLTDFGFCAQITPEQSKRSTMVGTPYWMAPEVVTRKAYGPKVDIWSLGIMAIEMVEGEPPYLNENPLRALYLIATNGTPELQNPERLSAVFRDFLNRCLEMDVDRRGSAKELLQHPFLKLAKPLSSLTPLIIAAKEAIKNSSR

Series 1
Target: CCNB1, cyclin fold, Cln2 fusion (human)
Technique: yeast growth competition, sequencing
Medium: yeast
Notes: strong parent motif
Reference: not given
Direction: higher = stronger binding
Starting sequence: E2F1 docking peptide (human); PPVKRRLDLETDH; partner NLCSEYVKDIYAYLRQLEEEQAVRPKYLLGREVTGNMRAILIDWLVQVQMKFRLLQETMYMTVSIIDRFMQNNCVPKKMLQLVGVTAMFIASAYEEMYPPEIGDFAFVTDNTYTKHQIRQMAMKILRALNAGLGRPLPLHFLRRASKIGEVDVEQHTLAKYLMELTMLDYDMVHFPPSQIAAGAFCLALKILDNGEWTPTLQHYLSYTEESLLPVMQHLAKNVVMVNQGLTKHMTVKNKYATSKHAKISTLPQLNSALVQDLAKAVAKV
Change	normalised enrichment score
V3E	0.467
D8S	1.21
E10I	1.35
D12F	2.02
L7M	0.00561
R5V	-0.121
R6M	0.717
P2D	1.7

Series 2
Target: Hepatocyte nuclear factor 3-alpha (Foxa1, Mus musculus, UniProt P35582, residues 1-468, full length assumed)
UniProt P35582, sequence (whole entry, looked up): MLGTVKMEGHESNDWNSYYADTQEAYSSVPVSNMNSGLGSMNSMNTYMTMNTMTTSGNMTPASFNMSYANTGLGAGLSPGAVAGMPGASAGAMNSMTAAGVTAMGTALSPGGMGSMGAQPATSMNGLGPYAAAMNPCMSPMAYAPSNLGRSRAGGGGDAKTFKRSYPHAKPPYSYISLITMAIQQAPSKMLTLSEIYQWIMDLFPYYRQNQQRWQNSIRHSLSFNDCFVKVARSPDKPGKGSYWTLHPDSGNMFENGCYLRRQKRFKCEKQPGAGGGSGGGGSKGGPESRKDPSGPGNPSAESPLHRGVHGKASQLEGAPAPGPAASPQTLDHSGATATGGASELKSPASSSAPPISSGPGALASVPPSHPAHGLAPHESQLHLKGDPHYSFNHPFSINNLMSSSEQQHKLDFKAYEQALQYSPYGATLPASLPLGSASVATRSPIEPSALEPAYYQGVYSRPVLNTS
Technique: EMSA with sequencing
Molecule type: double-stranded DNA, one strand shown
Medium: in vitro
Concentration: 10 and 20 nM
Notes: whole designed probe, mean of two concentrations, ends assumed
Reference: negative control set to 0
Direction: higher = stronger binding
Constant ends, left off below: GTGAGCGGTGCCCATTGATGGGGAAC … TTTCACTGGGATCGTGGGGAC
Strand	normalised bound fraction [ratio]
ATCTTCCCCCTCTTCCTTGCCCCACCAGCTCACCTTCCCGGGTTATTTGCAGATAGGAAAATAAATAAAGCCGGCATTCGTTAACCCTCTTCACGCGCATACTGCTGTTTGCTCTGGATGAATCATGGTCCTTTGGCGAGGCGTGGCTCCGGGAGAGCAAAGCACCGTGTCAGGGCCATGATCCGGGCTCGCC	0.336
TAGTGGTCTGAGTGTGTGGGAGTGGAGCTAAGCCTCCAGGACGATAGACTGTAGGACTTTGGATACTGGTTCCCAGCAAAAGATAAATGCCAAAAATTGCATTGGGTATGGGGGGAGTGAACACTTCCCACAAAGGCCTTTGTTCTTTTGCCCACAGCTTGTTACTTAGGCAACTGACAATTGAAGTTTGTGG	-0.0494
AAATGCAGCCTTTCCAGACCCATTGGCTCTGATATCTGGAGCGGGGATCCTGCCTTCTGAAAGGCAGAATTATTGGTGATTCCATGTGCTCTTGTTTACTTTGCTTACCAAGACCTATCAAGATTGAGTCATTTATGCTCTCATCTCTGAGAGACTCAGTGCTCTTCATGCAGTTGGACCCAACGCTTCATGC	0.484
CCTCTCCATTCTGATTTCCTTCAGACAAAATTATTTCTATCTTCGACATCAACAACTCTCCTGAAAAACATATAGTCAGTTCATCCAATTTCATATTTACTCTTTACTCTTGAGCACAATTTCTTGCCTACCAATTTATGAGCTCTTTCCAGTGAAAGTCCATATCTTCCATTCTTCTGTTACCCCTTTGGGG	0.177
TTTTTTCTGTACAGGGAAAAATAGTGAATATTTCAAAATTGTGAAACAAAGAGTCTCTGTGGCAACTACTCATTGTTGCATAACAGACAATATGCAAACAAATGAGTGTGTCTGTGTTCCAATAAAACTGTATTTACAAAAGCAGAAGGCCACCCATGTGCCAATGTCCAAAGTTTCTCAACCAACCCCTGGT	0.437
ACAAAGTGCTCCAAATGTCCAGTTCCACATACTACAAAATCAGTGTTTGAAACCTGCTCTATGAAAGTGAATGTTCAACTCTGTGTCTTGAATGCAAACATCCCAAAGAAGTTTCTGATAATGCTTCTGTCTAGATTTTATATGAAGATATTCCCGTTTCCAGCGAAATCCACCAAGCTATCCAAATATCCAC	0.0985
ATGCATACATCTACCACATGTATTAATAAGCATATATTTATTATAAAGCCAATTGAGATTTTATATCTCAGACATAAATTTCATTATTTTTATGTTTACTTTGAAAGATATAGTAATATTTTTGAAAAACTATTAACTAGTTGAATCATAAAAATGGAAATAAATGTAAAATTTTTTTGTTGTTAAACTAGTT	0.44
TTTTCATTTACTCTTGTTTTGTGTTTGAGTATAGACAGCTTTTCCCATCCTCCATCAGGGTCATTGTCCCACCTTCTCTGACTCACTTATTGTGTCATCTGAATTAAAAGAGCAGCCGGTGGACGTGTGTAGAGGCTGAAGGAGAGCTGTGTTGCTAGCTTTGTATTTGAACGGTTCGTACACAAACAGTTCT	0.101

Series 3
Target: Serine/threonine-protein kinase pim-1 (PIM1, Homo sapiens, UniProt P11309)
UniProt P11309, sequence (whole entry, looked up): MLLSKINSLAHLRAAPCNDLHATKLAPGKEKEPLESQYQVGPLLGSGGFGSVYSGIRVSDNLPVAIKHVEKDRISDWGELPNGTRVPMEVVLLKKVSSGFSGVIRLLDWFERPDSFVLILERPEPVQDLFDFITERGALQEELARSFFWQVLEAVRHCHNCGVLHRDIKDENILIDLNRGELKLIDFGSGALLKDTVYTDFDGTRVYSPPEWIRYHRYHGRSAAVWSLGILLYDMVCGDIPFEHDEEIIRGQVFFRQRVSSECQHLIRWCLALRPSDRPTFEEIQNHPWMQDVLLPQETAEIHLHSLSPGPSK
Read-out: enzyme activity
Mode: inhibitor
Concentration: 0.5 µM
Reference: control
SMILES	remaining activity [%]
Oc1ccc(Nc2nc(-c3ccc(Cl)cc3)cs2)cc1	103
CC(C)(C)n1nc(Cc2cccc3ccccc23)c2c(N)ncnc21	103
O=C1Cc2c([nH]c3ccc([N+](=O)[O-])cc23)-c2ccccc2N1	92
CC(=O)c1ccc(N2CCOCC2)cc1O	97.2
CSc1nc(-c2ccnc(N[C@@H](C)c3ccccc3)c2)c(-c2ccc(F)cc2)[nH]1 (racemic)	91.8
NC(=O)c1ccc(N(C(N)=O)c2c(F)cccc2F)nc1-c1ccc(F)cc1F	98.8
N#CC(=C(N)Sc1ccc(N)cc1)c1ccccc1C(F)(F)F	99.7
COc1ccc(S(=O)(=O)N(CCO)c2ccccc2CN(C)CC=Cc2ccc(Cl)cc2)cc1	104
CC#CC(=O)Nc1cc2c(Nc3ccc(F)c(Cl)c3)ncnc2cn1	98.6
Cc1cncc2cccc(S(=O)(=O)N3CCCN(C(=O)CN)C[C@@H]3C)c12	105
CCc1[nH]c(-c2ccc(OC)cc2)nc1-c1ccncc1	104
Cc1ccc(NC2=CC(=O)c3sc(C)nc3C2=O)cc1	96.8
Nc1ncnc2c1cnn2-c1ccccc1	99.4
Fc1ccc(-c2nc3n(c2-c2ccncc2)CCS3)cc1	104
CC[n+]1c(/C=C/N(C)c2ccccc2)n(-c2ccccc2)c2ccc(-c3nc4ccccc4s3)cc21	102

Series 4
SMILES: Cc1c(NC(=O)c2cc(C(N)=O)nc3cc(F)ccc23)c(C(F)(F)F)nn1Cc1ccc(C#N)cc1
Read-out: cell-free assay
Technique: competition with immobilised ligand
Concentration: 1 µM
target	remaining binding [%]
Ribosomal protein S6 kinase alpha-1, N-terminal kinase domain (RPS6KA1, Homo sapiens, UniProt Q15418)	100
NEK1 (Homo sapiens, UniProt Q96PY6)	95
BTK (Homo sapiens, UniProt Q06187)	70
HUNK (Homo sapiens, UniProt P57058)	77
EPHA3 (Homo sapiens, UniProt P29320)	90
MAP2K5 (Homo sapiens, UniProt Q13163)	88
TIE1 (Homo sapiens, UniProt P35590)	81
PIM3 (Homo sapiens, UniProt Q86V86)	100
MAPK7 (Homo sapiens, UniProt Q13164)	95
EPHA6 (Homo sapiens, UniProt Q9UF33)	87
PRKD1 (Homo sapiens, UniProt Q15139)	100
MAPK15 (Homo sapiens, UniProt Q8TD08)	100
Tyrosine-protein kinase ABL1, phosphorylated (ABL1, Homo sapiens, UniProt P00519, T315I)	92
Ribosomal protein S6 kinase alpha-1, C-terminal kinase domain (RPS6KA1, Homo sapiens, UniProt Q15418)	78
MAP3K13 (Homo sapiens, UniProt O43283)	84
Cyclin-dependent kinase 4, with cyclin D1 (CDK4, Homo sapiens, UniProt P11802)	87
PAK3 (Homo sapiens, UniProt O75914)	76
PHKG2 (Homo sapiens, UniProt P15735)	94
RET (Homo sapiens, UniProt P07949, V804L)	100
COQ8B (Homo sapiens, UniProt Q96D53)	80
TSSK1B (Homo sapiens, UniProt Q9BXA7)	95
CLK3 (Homo sapiens, UniProt P49761)	100
CDK16 (Homo sapiens, UniProt Q00536)	100
